Measured values from different studies.
Numbered parts are unrelated; each lists some results of a single study. Values joined by “and” are separate records of one study, mostly repeats; a detail may differ.
UniProt Q9H422, sequence (whole entry, looked up): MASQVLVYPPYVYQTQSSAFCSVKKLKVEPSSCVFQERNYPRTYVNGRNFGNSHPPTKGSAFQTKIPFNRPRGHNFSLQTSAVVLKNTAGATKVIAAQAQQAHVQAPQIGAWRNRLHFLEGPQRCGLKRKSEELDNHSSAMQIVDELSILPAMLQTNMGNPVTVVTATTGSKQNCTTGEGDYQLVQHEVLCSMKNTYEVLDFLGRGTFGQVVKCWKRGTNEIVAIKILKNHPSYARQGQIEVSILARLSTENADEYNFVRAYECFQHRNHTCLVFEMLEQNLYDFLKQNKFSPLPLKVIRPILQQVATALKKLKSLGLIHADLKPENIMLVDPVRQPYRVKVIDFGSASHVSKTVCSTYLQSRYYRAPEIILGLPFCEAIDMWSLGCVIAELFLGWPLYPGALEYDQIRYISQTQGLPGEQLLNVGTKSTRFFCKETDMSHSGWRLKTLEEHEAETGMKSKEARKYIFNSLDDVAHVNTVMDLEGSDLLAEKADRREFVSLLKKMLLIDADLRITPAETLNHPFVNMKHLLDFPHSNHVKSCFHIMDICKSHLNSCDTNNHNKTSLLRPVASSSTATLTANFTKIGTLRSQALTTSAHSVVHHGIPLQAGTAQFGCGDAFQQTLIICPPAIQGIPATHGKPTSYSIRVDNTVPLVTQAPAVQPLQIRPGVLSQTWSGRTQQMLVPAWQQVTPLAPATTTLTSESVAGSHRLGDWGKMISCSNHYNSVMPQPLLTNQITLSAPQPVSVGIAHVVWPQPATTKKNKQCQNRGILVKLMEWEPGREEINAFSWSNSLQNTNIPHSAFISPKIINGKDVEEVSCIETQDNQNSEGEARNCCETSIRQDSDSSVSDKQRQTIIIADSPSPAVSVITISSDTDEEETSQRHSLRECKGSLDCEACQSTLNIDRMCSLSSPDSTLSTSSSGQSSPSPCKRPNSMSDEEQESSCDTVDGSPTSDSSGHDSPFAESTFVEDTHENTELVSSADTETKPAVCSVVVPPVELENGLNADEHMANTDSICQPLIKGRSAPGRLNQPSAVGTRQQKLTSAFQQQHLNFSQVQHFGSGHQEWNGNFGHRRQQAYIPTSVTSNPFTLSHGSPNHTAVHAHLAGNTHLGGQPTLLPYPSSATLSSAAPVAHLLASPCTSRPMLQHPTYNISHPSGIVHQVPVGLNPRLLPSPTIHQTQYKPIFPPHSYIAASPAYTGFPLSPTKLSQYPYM
UniProt Q9Y616, sequence (whole entry, looked up): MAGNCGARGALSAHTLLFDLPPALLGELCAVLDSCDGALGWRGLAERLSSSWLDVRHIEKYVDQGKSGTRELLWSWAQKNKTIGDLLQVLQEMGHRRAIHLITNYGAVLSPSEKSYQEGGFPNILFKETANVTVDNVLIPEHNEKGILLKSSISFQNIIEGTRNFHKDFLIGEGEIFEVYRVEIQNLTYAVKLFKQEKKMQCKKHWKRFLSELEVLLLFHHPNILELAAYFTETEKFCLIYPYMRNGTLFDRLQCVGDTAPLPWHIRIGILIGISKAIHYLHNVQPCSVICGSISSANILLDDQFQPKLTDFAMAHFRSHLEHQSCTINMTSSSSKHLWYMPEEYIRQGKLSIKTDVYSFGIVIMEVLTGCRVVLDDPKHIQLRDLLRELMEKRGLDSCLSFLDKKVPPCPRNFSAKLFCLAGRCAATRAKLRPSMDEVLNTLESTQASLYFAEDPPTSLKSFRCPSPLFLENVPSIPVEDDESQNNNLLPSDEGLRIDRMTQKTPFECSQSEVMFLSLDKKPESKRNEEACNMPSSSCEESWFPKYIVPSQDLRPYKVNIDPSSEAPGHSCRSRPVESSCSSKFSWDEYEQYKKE
UniProt P29376, sequence (whole entry, looked up): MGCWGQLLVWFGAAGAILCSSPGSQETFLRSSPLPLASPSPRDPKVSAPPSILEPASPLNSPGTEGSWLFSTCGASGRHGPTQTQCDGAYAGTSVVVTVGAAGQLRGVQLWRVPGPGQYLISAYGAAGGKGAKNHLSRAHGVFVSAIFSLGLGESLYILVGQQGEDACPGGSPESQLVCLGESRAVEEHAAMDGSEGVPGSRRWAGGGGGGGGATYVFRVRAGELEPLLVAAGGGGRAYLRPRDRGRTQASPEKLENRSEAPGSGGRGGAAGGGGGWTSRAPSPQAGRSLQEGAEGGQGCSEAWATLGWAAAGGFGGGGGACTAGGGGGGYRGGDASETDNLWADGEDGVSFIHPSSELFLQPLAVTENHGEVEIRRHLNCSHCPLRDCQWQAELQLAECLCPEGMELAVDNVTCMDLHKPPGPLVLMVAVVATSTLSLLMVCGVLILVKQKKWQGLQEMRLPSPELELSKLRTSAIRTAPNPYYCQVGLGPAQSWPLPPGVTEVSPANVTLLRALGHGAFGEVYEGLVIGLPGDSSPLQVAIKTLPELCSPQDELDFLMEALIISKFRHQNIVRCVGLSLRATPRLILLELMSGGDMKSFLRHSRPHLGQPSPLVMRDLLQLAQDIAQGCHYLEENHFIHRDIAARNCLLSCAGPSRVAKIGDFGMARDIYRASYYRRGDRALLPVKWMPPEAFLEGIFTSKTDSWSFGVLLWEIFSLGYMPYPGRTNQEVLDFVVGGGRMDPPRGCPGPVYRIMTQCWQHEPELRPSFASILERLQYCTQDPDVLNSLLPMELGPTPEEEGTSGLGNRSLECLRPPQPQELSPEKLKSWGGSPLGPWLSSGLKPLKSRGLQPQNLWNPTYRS
UniProt Q13554, sequence (whole entry, looked up): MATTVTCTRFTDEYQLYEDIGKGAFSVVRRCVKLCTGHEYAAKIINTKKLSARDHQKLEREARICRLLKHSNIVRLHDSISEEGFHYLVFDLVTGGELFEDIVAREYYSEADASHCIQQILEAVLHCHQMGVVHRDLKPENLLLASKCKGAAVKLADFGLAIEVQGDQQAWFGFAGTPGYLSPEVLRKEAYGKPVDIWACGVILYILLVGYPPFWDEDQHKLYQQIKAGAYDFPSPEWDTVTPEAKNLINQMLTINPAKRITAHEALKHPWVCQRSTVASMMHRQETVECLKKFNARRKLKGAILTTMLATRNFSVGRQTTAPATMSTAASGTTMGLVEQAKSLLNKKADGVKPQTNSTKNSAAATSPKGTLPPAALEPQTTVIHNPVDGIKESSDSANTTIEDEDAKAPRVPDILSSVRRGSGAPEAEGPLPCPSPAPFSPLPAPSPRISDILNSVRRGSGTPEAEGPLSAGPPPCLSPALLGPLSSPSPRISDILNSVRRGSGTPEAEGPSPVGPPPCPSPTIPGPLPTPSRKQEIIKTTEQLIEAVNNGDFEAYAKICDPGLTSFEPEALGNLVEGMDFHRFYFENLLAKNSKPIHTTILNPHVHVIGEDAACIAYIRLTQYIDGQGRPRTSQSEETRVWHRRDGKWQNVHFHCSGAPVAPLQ
UniProt Q92772, sequence (whole entry, looked up): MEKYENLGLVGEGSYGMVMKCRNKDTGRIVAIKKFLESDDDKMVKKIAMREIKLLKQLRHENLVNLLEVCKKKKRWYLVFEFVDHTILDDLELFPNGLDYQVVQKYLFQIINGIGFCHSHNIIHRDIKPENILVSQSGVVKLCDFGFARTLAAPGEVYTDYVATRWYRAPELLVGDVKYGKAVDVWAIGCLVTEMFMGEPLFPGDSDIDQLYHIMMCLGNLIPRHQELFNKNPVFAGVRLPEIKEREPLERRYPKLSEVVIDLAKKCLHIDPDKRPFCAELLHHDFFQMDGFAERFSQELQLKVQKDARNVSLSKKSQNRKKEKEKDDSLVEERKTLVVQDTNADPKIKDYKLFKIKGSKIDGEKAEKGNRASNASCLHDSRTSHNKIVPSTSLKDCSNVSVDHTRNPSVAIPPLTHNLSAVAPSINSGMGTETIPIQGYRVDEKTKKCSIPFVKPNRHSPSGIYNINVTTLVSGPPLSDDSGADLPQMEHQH
UniProt P11802, sequence (whole entry, looked up): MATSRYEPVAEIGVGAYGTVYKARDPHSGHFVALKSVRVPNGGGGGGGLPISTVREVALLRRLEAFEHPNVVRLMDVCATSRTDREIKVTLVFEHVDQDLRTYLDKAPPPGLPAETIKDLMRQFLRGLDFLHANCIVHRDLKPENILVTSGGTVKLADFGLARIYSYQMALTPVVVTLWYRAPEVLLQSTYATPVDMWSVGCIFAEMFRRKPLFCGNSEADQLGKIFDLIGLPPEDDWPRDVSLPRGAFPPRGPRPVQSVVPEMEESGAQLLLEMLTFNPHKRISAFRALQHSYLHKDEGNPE
UniProt Q96GD4, sequence (whole entry, looked up): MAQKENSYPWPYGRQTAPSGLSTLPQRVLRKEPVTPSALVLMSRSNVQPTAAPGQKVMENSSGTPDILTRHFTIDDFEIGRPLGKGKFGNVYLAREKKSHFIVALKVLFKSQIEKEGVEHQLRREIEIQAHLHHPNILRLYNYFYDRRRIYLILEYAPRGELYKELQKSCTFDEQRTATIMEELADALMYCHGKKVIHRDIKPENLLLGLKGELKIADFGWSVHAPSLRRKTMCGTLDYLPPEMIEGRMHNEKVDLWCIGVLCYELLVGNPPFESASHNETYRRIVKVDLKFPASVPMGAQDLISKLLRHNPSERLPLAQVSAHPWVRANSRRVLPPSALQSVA
UniProt Q9HC98, sequence (whole entry, looked up): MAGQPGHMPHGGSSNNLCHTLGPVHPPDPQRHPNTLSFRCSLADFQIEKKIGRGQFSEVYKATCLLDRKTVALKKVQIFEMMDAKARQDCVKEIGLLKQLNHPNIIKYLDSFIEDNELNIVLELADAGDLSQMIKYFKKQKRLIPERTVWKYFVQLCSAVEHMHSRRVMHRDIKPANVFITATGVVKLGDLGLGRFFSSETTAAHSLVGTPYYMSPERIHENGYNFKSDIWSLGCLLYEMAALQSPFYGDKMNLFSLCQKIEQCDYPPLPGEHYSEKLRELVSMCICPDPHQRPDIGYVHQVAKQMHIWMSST

Series 1 — cell line: A-375; concentration: 100 µM; time: 18 h
| Compound | viability [%] |
| --- | --- |
| CC(=O)Nc1ccc(O)cc1 | 107 |
| CCNC(=O)CCC/C=C\C[C@@H]1[C@@H](/C=C/[C@@H](O)CCc2ccccc2)[C@H](O)C[C@@H]1O | 108 |
| N=C(N)NC(=O)Cc1c(Cl)cccc1Cl | 80.6 |
| CCN(CC)C(=O)N1CCN(C)CC1 | 103 |
| O=C(CCNNC(=O)c1ccncc1)NCc1ccccc1 | 105 |
| Cc1ccc2c(Cl)cc(Cl)c(O)c2n1 | 50.4 |
| NC[C@H]1O[C@H](O[C@H]2[C@H](O[C@@H]3O[C@H](CO)[C@@H](O)[C@H]3O)[C@@H](O)[C@H](N)C[C@@H]2N)[C@H](N)[C@@H](O)[C@@H]1O | 93.5 |
| Cc1c(O)cccc1C(=O)N[C@@H](CSc1ccccc1)[C@H](O)CN1C[C@H]2CCCC[C@H]2C[C@H]1C(=O)NC(C)(C)C | 30 |

Series 2 — technique: competition with immobilised ligand; concentration: 1 µM
Structure (SMILES): CN(C)C(=O)Cn1cc(-c2nc([C@@](C)(c3ccc(-c4cnc(N)nc4)cc3)C3CC3)no2)cn1
| target | read-out | remaining binding [%] |
| --- | --- | --- |
| ABL2 (Homo sapiens, UniProt P42684) | cell-free assay | 100 |
| NEK7 (Homo sapiens, UniProt Q8TDX7) | cell-free assay | 90 |
| FLT1 (Homo sapiens, UniProt P17948) | cell-free assay | 100 |
| PRKG2 (Homo sapiens, UniProt Q13237) | cell-free assay | 85 |
| Aurora kinase B (AURKB, Homo sapiens, UniProt Q96GD4) | cell-free assay | 96 |
| CAMK2B (Homo sapiens, UniProt Q13554) | cell-free assay | 96 |
| CDKL2 (Homo sapiens, UniProt Q92772) | binding | 100 |
| Cyclin-dependent kinase 4, with cyclin D3 (CDK4, Homo sapiens, UniProt P11802) | cell-free assay | 94 |
| GAK (Homo sapiens, UniProt O14976) | cell-free assay | 100 |
| EPHB2 (Homo sapiens, UniProt P29323) | cell-free assay | 87 |
| NEK6 (Homo sapiens, UniProt Q9HC98) | cell-free assay | 100 |
| CAMK4 (Homo sapiens, UniProt Q16566) | cell-free assay | 83 |
| ACVR2A (Homo sapiens, UniProt P27037) | cell-free assay | 81 |
| LTK (Homo sapiens, UniProt P29376) | cell-free assay | 89 |
| Myosin-IIIb (MYO3B, Homo sapiens, UniProt Q8WXR4) | binding | 70 |
| Myosin-IIIa (MYO3A, Homo sapiens, UniProt Q8NEV4) | binding | 100 |
| PRKX (Homo sapiens, UniProt P51817) | cell-free assay | 100 |
| KIT (Homo sapiens, UniProt P10721, D816H) | cell-free assay | 100 |
| HIPK3 (Homo sapiens, UniProt Q9H422) | cell-free assay | 97 |
| STK39 (Homo sapiens, UniProt Q9UEW8) | cell-free assay | 81 |
| EGFR (Homo sapiens, UniProt P00533, del747-752/P753S) | cell-free assay | 75 |
| DSTYK (Homo sapiens, UniProt Q6XUX3) | cell-free assay | 57 |
| Tyrosine-protein kinase ABL1, phosphorylated (ABL1, Homo sapiens, UniProt P00519, Y253F) | cell-free assay | 76 |
| IRAK3 (Homo sapiens, UniProt Q9Y616) | cell-free assay | 100 |
| EGFR (Homo sapiens, UniProt P00533, L858R/T790M) | cell-free assay | 93 |

Series 3 — target: panel of 300 human kinases; concentration: 0.5 µM; direction: higher = more selective
| SMILES | Gini score |
| --- | --- |
| NC(=O)c1cccc(-c2cc(Nc3ccc(OC(F)(F)F)cc3)ncn2)c1 | 0.64 |
| O=C(c1ccccc1)c1ccc(N2CCOCC2)cc1O | 0.72 |
| COc1cc2c(Nc3ccc(Br)cc3F)ncnc2cc1OCC1CCN(C)CC1 | 0.75 |
| COc1ccc(OC)c2c(=S)c3ccccc3[nH]c12 | 0.61 |
| O=C(O)c1ccc2c3c1cccc3c(=O)n1c3ccccc3nc21 | 0.72 |
| Cn1c2ccccc2c2c3c(c4c5ccccc5n(CCC#N)c4c21)CNC3=O | 0.49 |
| Cc1[nH]c(/C=C2\C(=O)Nc3ccc(S(=O)(=O)N(C)c4cccc(Cl)c4)cc32)c(C)c1C(=O)N1CCN(C)CC1 | 0.63 |
| C#Cc1cccc(Nc2ncnc3cc(OCCOC)c(OCCOC)cc23)c1 | 0.7 |
| COc1ccc(C(=O)Nc2sc3c(c2C(N)=O)CCCC3)cc1OC | 0.67 |
| O=c1c2ccccc2[nH]c(=S)n1CCN1CCC(=C(c2ccc(F)cc2)c2ccc(F)cc2)CC1 | 0.74 |

Series 4 — organism: Leishmania infantum; technique: qPCR, delta Ct; species: golden hamster, infected; route: oral; dose: 10 mg/kg/day; time: 10 days; baseline: microglobulin reference gene
SMILES: c1ccc(Oc2ccc(Nc3c4c(nc5ccccc35)CCC4)cc2)cc1
| item | matrix | relative mRNA level |
| --- | --- | --- |
| TNF | spleen | -0.288 and 0.449 and -0.111 and 1.3 and 1.05 and 3.96 |
| IL10 | spleen | 5.18 and 5.44 and 5.75 and 5.4 |
| IL4 | liver | 6.51 and 6.62 and 10.6 and 7.53 and 8.71 and 4.48 |
| IFN-gamma | spleen | 5.75 and 6.76 and 8.82 and 10.8 and 10.5 |

Series 5 — cell line: human islets; technique: qPCR; concentration: concentration not given; notes: unit not given
SMILES: O=C(COc1ccccc1P(=O)(O)O)NCC(F)(F)c1cccc(F)c1
| item | with | baseline | mRNA level |
| --- | --- | --- | --- |
| INS | 20 mM glucose plus 500 µM palmitate | low glucose | 5.23 and 3.86 and 3.08 |
| RELA | low glucose | low glucose control | 0.962 and 1.75 and 1.1 and 1.05 |
| USP8 | low glucose | low glucose control | 0.961 and 2.27 and 1.12 and 0.934 |
| BRAF | low glucose | low glucose control | 1.24 and 2.11 and 0.756 and 1.01 |

Other studies, line by line
| Structure (SMILES) | matrix | quantity | result |
| --- | --- | --- | --- |
| CCC[C@@H]1NC(=O)CSC[C@@H](C(=O)OCC)N(C)C(=O)[C@H](CC(C)C)NC(=O)[C@@H](C)N(C)C(=O)[C@H](CC(C)C)NC(=O)[C@H](C)N(C)C(=O)[C@@H]2CCCN2C(=O)[C@H](CC(C)C)NC(=O)CN(CCC)C1=O | hydrocarbon/water | logD | 1.07 |

For quick reference, copied from above (series 3):
| SMILES | Gini score |
| --- | --- |
| Cn1c2ccccc2c2c3c(c4c5ccccc5n(CCC#N)c4c21)CNC3=O | 0.49 |
| Cc1[nH]c(/C=C2\C(=O)Nc3ccc(S(=O)(=O)N(C)c4cccc(Cl)c4)cc32)c(C)c1C(=O)N1CCN(C)CC1 | 0.63 |
| C#Cc1cccc(Nc2ncnc3cc(OCCOC)c(OCCOC)cc23)c1 | 0.7 |
| COc1ccc(C(=O)Nc2sc3c(c2C(N)=O)CCCC3)cc1OC | 0.67 |
| O=c1c2ccccc2[nH]c(=S)n1CCN1CCC(=C(c2ccc(F)cc2)c2ccc(F)cc2)CC1 | 0.74 |
